Measured values of several laboratories.
Parts stem from different laboratories: compare values within a part only.
UniProt P20309, sequence (whole entry, looked up): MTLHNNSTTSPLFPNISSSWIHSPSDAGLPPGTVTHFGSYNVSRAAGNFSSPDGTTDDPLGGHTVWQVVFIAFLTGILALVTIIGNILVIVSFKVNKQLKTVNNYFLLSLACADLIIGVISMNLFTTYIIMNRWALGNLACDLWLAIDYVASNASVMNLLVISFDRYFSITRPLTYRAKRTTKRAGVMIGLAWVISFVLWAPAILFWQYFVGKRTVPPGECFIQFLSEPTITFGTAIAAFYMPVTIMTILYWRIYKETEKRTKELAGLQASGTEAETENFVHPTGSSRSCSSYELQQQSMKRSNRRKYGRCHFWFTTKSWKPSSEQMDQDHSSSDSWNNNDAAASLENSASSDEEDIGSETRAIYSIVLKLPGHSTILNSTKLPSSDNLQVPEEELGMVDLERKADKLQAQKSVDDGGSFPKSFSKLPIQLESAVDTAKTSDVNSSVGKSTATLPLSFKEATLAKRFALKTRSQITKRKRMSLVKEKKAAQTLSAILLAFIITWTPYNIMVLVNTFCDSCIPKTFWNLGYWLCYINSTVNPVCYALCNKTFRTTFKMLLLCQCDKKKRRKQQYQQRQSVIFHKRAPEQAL
UniProt P11229, sequence (whole entry, looked up): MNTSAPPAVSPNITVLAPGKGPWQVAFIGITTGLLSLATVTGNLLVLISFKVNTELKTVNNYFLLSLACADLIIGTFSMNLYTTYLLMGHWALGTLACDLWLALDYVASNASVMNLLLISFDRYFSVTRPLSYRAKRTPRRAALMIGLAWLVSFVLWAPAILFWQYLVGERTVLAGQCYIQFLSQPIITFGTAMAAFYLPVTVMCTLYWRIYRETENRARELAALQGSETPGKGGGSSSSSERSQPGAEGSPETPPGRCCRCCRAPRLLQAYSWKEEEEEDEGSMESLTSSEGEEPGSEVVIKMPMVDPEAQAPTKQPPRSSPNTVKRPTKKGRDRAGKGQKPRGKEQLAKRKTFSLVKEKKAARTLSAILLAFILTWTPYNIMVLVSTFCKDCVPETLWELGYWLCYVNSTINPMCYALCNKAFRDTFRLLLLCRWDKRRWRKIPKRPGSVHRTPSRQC
UniProt P21918, sequence (whole entry, looked up): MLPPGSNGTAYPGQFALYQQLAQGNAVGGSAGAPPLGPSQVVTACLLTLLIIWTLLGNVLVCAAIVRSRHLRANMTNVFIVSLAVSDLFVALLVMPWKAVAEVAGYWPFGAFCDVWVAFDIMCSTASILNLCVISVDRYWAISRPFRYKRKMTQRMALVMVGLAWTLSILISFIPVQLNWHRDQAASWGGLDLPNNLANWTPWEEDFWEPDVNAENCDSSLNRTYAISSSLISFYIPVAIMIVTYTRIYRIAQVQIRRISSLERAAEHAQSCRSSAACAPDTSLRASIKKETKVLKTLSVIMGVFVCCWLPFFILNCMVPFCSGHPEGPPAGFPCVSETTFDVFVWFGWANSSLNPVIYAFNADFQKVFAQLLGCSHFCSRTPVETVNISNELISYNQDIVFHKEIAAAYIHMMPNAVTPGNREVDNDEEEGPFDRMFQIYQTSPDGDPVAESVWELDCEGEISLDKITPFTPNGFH
UniProt P41145, sequence (whole entry, looked up): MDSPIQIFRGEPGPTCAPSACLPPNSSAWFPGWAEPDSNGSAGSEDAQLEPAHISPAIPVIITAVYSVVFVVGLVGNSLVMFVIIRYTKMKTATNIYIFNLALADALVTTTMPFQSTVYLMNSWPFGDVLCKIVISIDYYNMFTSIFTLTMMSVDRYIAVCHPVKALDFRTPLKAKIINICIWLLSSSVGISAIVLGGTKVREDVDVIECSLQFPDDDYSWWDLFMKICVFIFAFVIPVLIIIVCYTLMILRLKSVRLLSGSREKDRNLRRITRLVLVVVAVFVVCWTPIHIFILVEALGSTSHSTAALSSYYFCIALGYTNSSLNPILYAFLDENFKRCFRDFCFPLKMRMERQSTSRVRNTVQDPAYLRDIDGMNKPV
UniProt P41143, sequence (whole entry, looked up): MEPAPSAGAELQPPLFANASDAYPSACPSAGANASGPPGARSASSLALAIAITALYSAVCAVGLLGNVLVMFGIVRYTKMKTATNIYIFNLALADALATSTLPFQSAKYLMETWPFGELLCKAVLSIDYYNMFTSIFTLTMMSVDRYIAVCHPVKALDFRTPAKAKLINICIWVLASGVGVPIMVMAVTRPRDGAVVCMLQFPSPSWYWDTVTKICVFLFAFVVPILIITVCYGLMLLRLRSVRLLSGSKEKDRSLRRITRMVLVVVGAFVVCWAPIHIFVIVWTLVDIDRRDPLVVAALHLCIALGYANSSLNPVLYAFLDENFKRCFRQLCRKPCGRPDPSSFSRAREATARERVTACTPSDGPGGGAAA

Series 1 — cell line: HEK-293T; read-out: pseudovirus infection; method: FDA-approved drug library counter-screen; organism: VSV pseudotyped with VSV-G; tested at: 10 µM; time: 16 h; reference: vehicle-treated
SMILES	GFP-positive cells [%]
CCN(CCO)CCCC(C)Nc1ccnc2cc(Cl)ccc12 (centres unmarked)	80.5
CCCCCCCCCC(=O)O[C@H]1CC[C@H]2[C@@H]3CCC4=CC(=O)CC[C@@H]4[C@H]3CC[C@]12C	116
CCn1cc(C(=O)O)c(=O)c2ccc(C)nc21	95.2
COC(=O)c1ccccc1O	114
COC[C@@H](NC(C)=O)C(=O)NCc1ccccc1	101
C[C@@H](c1nc(-c2ccc(C#N)cc2)cs1)[C@](O)(Cn1cncn1)c1cc(F)ccc1F	80.1
NC(=O)OCC(COC(N)=O)c1ccccc1	105
C=CC1=C(C(=O)O)N2C(=O)[C@@H](NC(=O)/C(=N\O)c3csc(N)n3)[C@H]2SC1	112
Cn1c(=O)c2[nH]cnc2n(C)c1=O	121
CC(C)N1CCN(c2ccc(OCC3COC(Cn4cncn4)(c4ccc(Cl)cc4Cl)O3)cc2)CC1 (centres unmarked)	75.7
CC(c1cc2ccccc2s1)N(O)C(N)=O (centres unmarked)	87.8
CC(=O)c1ccc(S(=O)(=O)NC(=O)NC2CCCCC2)cc1	86.3
C[C@@H]1C[C@H]2[C@@H]3CCC4=CC(=O)C=C[C@]4(C)[C@@]3(Cl)[C@@H](O)C[C@]2(C)[C@@]1(OC(=O)c1ccco1)C(=O)CCl	93.8
COc1cc([C@@H]2c3cc4c(cc3[C@@H](O[C@@H]3O[C@@H]5CO[C@@H](c6cccs6)O[C@H]5[C@H](O)[C@H]3O)[C@H]3COC(=O)[C@H]23)OCO4)cc(OC)c1O	68.9
CCS(=O)(=O)CCn1c([N+](=O)[O-])cnc1C	86.2
CC(C)[C@H]1CC[C@H](C(=O)N[C@H](Cc2ccccc2)C(=O)O)CC1	91.7
CCC1(C)CC(=O)NC1=O (centres unmarked)	87.3
CN1C[C@H](C(=O)N[C@]2(C)O[C@@]3(O)[C@@H]4CCCN4C(=O)[C@H](Cc4ccccc4)N3C2=O)C[C@@H]2c3cccc4[nH]cc(c34)C[C@H]21	141
CCCN(CCC)CCc1cccc2c1CC(=O)N2	114
CC(C[N+](C)(C)C)OC(N)=O (centres unmarked)	130
CN(C)CCC=C1c2ccccc2CCc2ccccc21	106
Cc1cc2nc3c(=O)[nH]c(=O)nc-3n(C[C@H](O)[C@H](O)[C@H](O)CO)c2cc1C	74.1
C=CC[N+]1([C@H]2C[C@H]3[C@@H]4CC[C@H]5C[C@H](O)[C@@H](N6CCOCC6)C[C@]5(C)[C@H]4CC[C@]3(C)[C@H]2OC(C)=O)CCCC1	98.2
CC(C)Cn1cnc2c(N)nc3ccccc3c21	115
O=S(=O)(O)Oc1ccc(C(c2ccc(OS(=O)(=O)O)cc2)c2ccccn2)cc1	108

Series 2 — organism: Sarcocystis neurona; read-out: parasite growth; tested at: concentration not given
Compound	inhibition
COc1cc(N)c(Cl)cc1C(=O)NC1CN2CCC1CC2.Cl (centres unmarked)	-13%
COc1ccc2[nH]cc(C3=CCNCC3)c2c1.O=C(O)CCC(=O)O	-13.8%
CC(NC(C)(C)C)C(=O)c1cccc(Cl)c1.Cl (centres unmarked)	-15%
CCCCCCCCCOc1ccc2[nH]cc(CCN)c2c1	-9.7%
C[N+]1(CCC(C(N)=O)(c2ccccc2)c2ccccc2)CCCCC1.[Br-]	-16.1%
CN1CC[C@@H](c2ccc(F)cc2)[C@H](COc2ccc3c(c2)OCO3)C1	-0.2%
C=C(C)CN1CC[C@]23c4c5ccc(O)c4O[C@H]2c2[nH]c4ccccc4c2C[C@@]3(O)C1C5.Cl.O	-3.4%
COc1ccc(CCN)cc1OC	-7.7%
Cl.O.Oc1ccc2c3c1O[C@H]1c4[nH]c5ccccc5c4C[C@@]4(O)[C@@H](C2)N(CC2CC2)CC[C@]314	-7.6%
COC(=O)N1CCN(C(=O)Cc2ccc(Cl)c(Cl)c2)C(CN2CCCC2)C1.O=C(O)/C=C/C(=O)O (centres unmarked)	-9.1%
CCN(CC)CCOC(=O)C(O)(c1ccccc1)c1ccccc1.Cl	-4.8%
C[N+]1(C)CCN(c2ccccc2)CC1.[I-]	-6.3%
Cl.OC1CCCCC1N1CCC(c2ccccc2)CC1 (racemic)	-13.4%

Series 3 — read-out: cell-free assay; tested at: 10 µM
SMILES: CN(C)C(=O)Cn1cc(-c2nc(C3(c4ccc(-c5cnc(N)nc5)cc4)CC3)no2)cn1
target	inhibition
DRD5 (Homo sapiens, UniProt P21918)	22.8%
OPRK1 (Homo sapiens, UniProt P41145)	16.2%
CHRM3 (Homo sapiens, UniProt P20309)	-11.2%
CHRM1 (Homo sapiens, UniProt P11229)	-14.4%
OPRD1 (Homo sapiens, UniProt P41143)	-5.53%

Series 4 — cell line: HEK-293T-ACE2-TMPRSS2; method: cell count; tested at: concentration not given
SMILES	viability
CC(C)c1ccc(NC(=O)c2cn3c(n2)CCCC3)cc1	71%
O=C(CN(Cc1ccco1)S(=O)(=O)c1ccccc1F)Nc1ccc(N2CCCCC2)cc1	97%
Cc1cc2c(c(=O)n1CCN(C)C)C(c1cccc(Br)c1)C(C#N)=C(N)O2 (centres unmarked)	82%
Cc1nc(-c2ccc(C(=O)NCCCc3ccccc3)cc2)cs1	110%
CC(=O)N1CCSc2ccc(S(=O)(=O)N3CCN(CCOc4ccc(Cl)cc4)CC3)cc21	74%
COCC1CCCCN1c1nc2nonc2nc1NCc1cccs1 (centres unmarked)	107%
Cc1cc(Cl)c2oc(C(=O)N(Cc3c(C)nn(C)c3C)C3CC3)c(C)c2c1	71%
CCOC(=O)c1cc(C#N)c2ccccn2c1=O	65%
Cc1nc(-c2cccc(Cl)c2)n(CC(=O)NCc2ccc3c(c2)OCO3)c(=O)c1CCO	147%
CC(C)c1cc(C(=O)NCc2ccccc2CN2CCCC2=O)n(C)n1	71%
O=C1CN(c2ncnc3sc4c(c23)CCCCC4)CCN1	100%
Cc1cccc(-c2nnc(-c3nc(NCCCN4CCCC4=O)c4ccccc4n3)o2)c1	77%
N#Cc1ccc(C(=O)Nc2nc3c(s2)CN(Cc2ccccc2)CC3)cc1	75%
COCCCN1CN(c2cc(Cl)cc(Cl)c2)c2nc(C)c(C)c(=O)n2C1	75%
Cc1cc2nc3n(c2cc1C)C(O)C=C(C(C)(C)C)S3 (centres unmarked)	103%
CN(C)c1ccc(C2NC(=O)c3ccccc3N2)cc1[N+](=O)[O-] (centres unmarked)	104%
c1nc(NCCc2ccc3c(c2)OCCO3)c2c3c(sc2n1)CCCC3	70%
Cc1nn(C)c(C)c1CNC(=O)c1ccc(-c2nc(CN3CCN(c4ccccc4)CC3)c(C)o2)cc1	76%
CCS(=O)(=O)N1CSC[C@@H]1C(=O)NCCc1csc(-c2ccccc2)n1	65%
CCOc1cccc(N2C(=O)CC(N3CCC(C(N)=O)CC3)C2=O)c1 (centres unmarked)	82%
CCc1ccc(C2CC(=O)Nc3[nH]nc(-c4cccs4)c32)o1 (centres unmarked)	73%
Cc1cnc(C)c(N2CCN(Cc3ccc(C#CC(C)(C)O)s3)CC2)n1	94%
Cc1csc(NC(=O)C2CCN(S(=O)(=O)c3cc(C(=O)N4CCCCCC4)cs3)CC2)n1	74%
CC(=O)N1CCCSc2ccc(S(=O)(=O)N3CCSc4ccccc43)cc21	77%
Nc1nc(-c2ccc3c(c2)OCO3)cs1	100%
